Experimental data from different studies.
Lines come from different studies, so protocols differ. Numbers after ± are the reported error.

Under “black tail length”, `CCCCC1NC(=O)c2ccccc21` (racemic) is recorded as 3.5 ± 1.1 cm (thrombosis; mouse, carrageenan-induced thrombosis; oral, 20 mg/kg daily for 2 days, 24 h after carrageenan).
Under “concentration doubling prothrombin time”, `CNC(=O)N(C)c1ccc(C(=O)Nc2ccc(C)cc2C(=O)Nc2ccc(Cl)cn2)c(F)c1` is recorded as 10 ± 2 µM (human plasma).
`C[C@H](NC(=O)COC(=O)[C@H](C)NC(=O)CO)C(=O)O`: “depolymerization rate constant” 66.4 h⁻¹ (water; pH 8, 50 °C).
The body weight of `CC[C@H]1[C@@H](O)[C@@H]2[C@H](CC[C@]3(C)[C@@H]([C@H](C)CCOS(=O)(=O)[O-])CC[C@@H]23)[C@@]2(C)CC[C@@H](O)C[C@@H]12.[Na+]` is reported as 51.3 ± 1.8 g (ob/ob NASH mouse model; oral, 10 mg/kg once daily, 8 weeks).
With `CCCC[C@H](NC(=O)[C@@H](NC(=O)[C@H](CC(=O)O)NC(=O)[C@H](CCC(N)=O)NC(=O)[C@H](CC(C)C)NC(=O)[C@H](CC(C)C)NC(=O)[C@H](CCCN)NC(=O)[C@H](CCCNC(=N)N)NC(=O)[C@H](C)NC(=O)[C@H](CO)NC(=O)[C@H](CC(C)C)NC(=O)[C@H](CCC(N)=O)NC(=O)[C@H](CC)NC(=O)[C@H](CC(C)C)NC(=O)[C@@H](NC(=O)[C@H](CCCN)NC(=O)[C@H](CCCNC(=N)N)NC(=O)[C@H](Cc1ccc(O)cc1)NC(=O)[C@H](CO)NC(=O)[C@H](CC(N)=O)NC(=O)[C@@H](NC(=O)[C@H](Cc1c(F)c(F)c(F)c(F)c1F)NC(=O)[C@@H](NC(=O)[C@H](C)NC(=O)[C@H](CC(=O)O)NC(=O)[C@@H](C)NC(=O)CCc1ccc(O)cc1)[C@@H](C)CC)[C@@H](C)O)C(C)C)[C@@H](C)CC)C(=O)N[C@@H](CO)C(=O)N[C@@H](CCCNC(=N)N)C(=O)NCCCC(N)=O` the relative potency was 1.36 (GH release; rat, male, serum; subcutaneous, 3 µg/kg, 30 min; relative to: reference GHRH agonist JI-38).
The IC50 of `CC(C)(C)c1ccc(-c2nnc(S)o2)cc1` is reported as 94.4 ± 2.2 µM (nitric oxide scavenging).
Under “TG AUC(0-4 h) decrease”, `CC(C)(CCCC/C=C/CCCCCC(C)(C)C(=O)O)C(=O)O` is recorded as 75.8% (VLDL-TG secretion; C57BL/6J mice; 100 mg/kg, added: tyloxapol 600 mg/kg).
`O=C1/C(=C/c2ccc(O)c(O)c2)Oc2cc(O)c3c(oc4cc(O)c(O)cc43)c21` has an EC50 of 2180 µM (ABTS scavenging, absorbance).
With `CCCC[C@H](NC(=O)[C@@H](NC(=O)[C@H](CC(=O)O)NC(=O)[C@H](CCC(N)=O)NC(=O)[C@H](CC(C)C)NC(=O)[C@H](CC(C)C)NC(=O)[C@H](CCCN)NC(=O)[C@H](CCCNC(=N)N)NC(=O)[C@H](C)NC(=O)[C@H](CO)NC(=O)[C@H](CC(C)C)NC(=O)[C@H](CCC(N)=O)NC(=O)[C@H](CC)NC(=O)[C@H](CC(C)C)NC(=O)[C@@H](NC(=O)[C@H](CCCN)NC(=O)[C@H](CCCNC(=N)N)NC(=O)[C@H](Cc1ccc(O)cc1)NC(=O)[C@H](CO)NC(=O)[C@H](CCC(N)=O)NC(=O)[C@@H](NC(=O)[C@H](Cc1ccccc1)NC(=O)[C@@H](NC(=O)[C@H](C)NC(=O)[C@H](CC(=O)O)NC(=O)[C@@H](C)NC(=O)[C@H](Cc1ccc(O)cc1)NC)[C@@H](C)CC)[C@@H](C)O)C(C)C)[C@@H](C)CC)C(=O)N[C@@H](CC(=O)O)C(=O)N[C@@H](CCCNC(=N)N)C(=O)NCC` the relative potency was 0.96 (GH release; rat, male, serum; subcutaneous, 3 µg/kg, 30 min; relative to: reference GHRH agonist JI-38).
`NS(=O)(=O)NCC(F)(F)c1ccccc1F` has an ED50 of 19 ± 2 mg/kg (protection from seizures; Frings audiogenic seizure mouse; intraperitoneal).
For `O=C1c2c(cc(O)c3c2oc2cc(O)c(O)cc23)OC1Cc1ccccc1` (stereo not drawn), the EC50 was 1060 µM (ABTS scavenging, absorbance).
The relative potency of `CCCC[C@H](NC(=O)[C@@H](NC(=O)[C@H](CC(=O)O)NC(=O)[C@H](CCC(N)=O)NC(=O)[C@H](CC(C)C)NC(=O)[C@H](CC(C)C)NC(=O)[C@H](CCCN)NC(=O)[C@H](CCCNC(=N)N)NC(=O)[C@H](C)NC(=O)[C@H](CO)NC(=O)[C@H](CC(C)C)NC(=O)[C@H](CCC(N)=O)NC(=O)[C@H](CC)NC(=O)[C@H](CC(C)C)NC(=O)[C@@H](NC(=O)[C@H](CCCN)NC(=O)[C@H](CCCNC(=N)N)NC(=O)[C@H](Cc1ccc(O)cc1)NC(=O)[C@H](CO)NC(=O)[C@H](CCC(N)=O)NC(=O)[C@@H](NC(=O)[C@H](Cc1ccccc1)NC(=O)[C@@H](NC(=O)[C@H](C)NC(=O)[C@H](CC(=O)O)NC(=O)[C@H](C)NC(=O)[C@H](Cc1ccc(O)cc1)NC)[C@@H](C)CC)[C@@H](C)O)C(C)C)[C@@H](C)CC)C(=O)N[C@@H](CC(=O)O)C(=O)NCCCCNC(=N)N` is reported as 151 (GH release; male rat, serum; subcutaneous, dose not given, 30 min; relative to: GHRH(1-29)NH2).
`COC1OC(C)C(OS(=O)(=O)O)C(OC2OC(C)C(OS(=O)(=O)O)C(OC3OC(C)C(OS(=O)(=O)O)C(OC4OC(C)C(OS(=O)(=O)O)C(OC5OC(C)C(OS(=O)(=O)O)C(OC6OC(C)C(OS(=O)(=O)O)C(OC7OC(C)C(OS(=O)(=O)O)C(OC8OC(C)C(OS(=O)(=O)O)C(OS(=O)(=O)O)C8OS(=O)(=O)O)C7OS(=O)(=O)O)C6OS(=O)(=O)O)C5OS(=O)(=O)O)C4OS(=O)(=O)O)C3OS(=O)(=O)O)C2OS(=O)(=O)O)C1OS(=O)(=O)O` (stereo not drawn): “concentration doubling APTT” 13.6 µg/mL (clotting time; human plasma).
For `CCCC[C@H](NC(=O)[C@@H](NC(=O)[C@H](CC(=O)O)NC(=O)[C@H](CCC(N)=O)NC(=O)[C@H](CC(C)C)NC(=O)[C@H](CC(C)C)NC(=O)[C@H](CCCN)NC(=O)[C@H](CCCNC(=N)N)NC(=O)[C@H](C)NC(=O)[C@H](CO)NC(=O)[C@H](CC(C)C)NC(=O)[C@H](CCC(N)=O)NC(=O)[C@H](CC)NC(=O)[C@H](CC(C)C)NC(=O)[C@@H](NC(=O)[C@H](CCCN)NC(=O)[C@H](CCCNC(=N)N)NC(=O)[C@H](Cc1ccc(O)cc1)NC(=O)[C@H](CO)NC(=O)[C@H](CC(N)=O)NC(=O)[C@@H](NC(=O)[C@H](Cc1ccccc1)NC(=O)[C@@H](NC(=O)[C@H](C)NC(=O)[C@H](CC(=O)O)NC(=O)[C@@H](CC)NC(=O)CCc1ccc(O)cc1)[C@@H](C)CC)[C@@H](C)O)C(C)C)[C@@H](C)CC)C(=O)N[C@@H](CO)C(=O)N[C@@H](CCCNC(=N)N)C(=O)NCCCC(N)=O`, the relative potency was 1.02 (GH release; rat, male, serum; subcutaneous, 3 µg/kg, 30 min; relative to: reference GHRH agonist JI-38).
`CCCN(c1ccc(C(=O)NCCC(=O)O)cc1)S(=O)(=O)c1cc(C)c(-c2ccc(C(C)(C)C)cc2)c(C)c1`: “glucagon-induced blood glucose” “decreased” (HFD-induced obese mouse; oral, 50 mg/kg, all time points, added: 15 µg/kg glucagon ip after 1 h).
Under “wet granuloma weight”, `O=[N+]([O-])c1cccc(S(=O)(=O)NC[C@@H](O)[C@@H]2CCc3cc(F)ccc3O2)c1` is recorded as 190.9 ± 1.84 mg (rat, cotton pellet granuloma; oral, 100 mg/kg, 8 days).
The relative potency of `CCCC[C@H](NC(=O)[C@@H](NC(=O)[C@H](CC(=O)O)NC(=O)[C@H](CCC(N)=O)NC(=O)[C@H](CC(C)C)NC(=O)[C@H](CC(C)C)NC(=O)[C@H](CCCN)NC(=O)[C@H](CCCNC(=N)N)NC(=O)[C@H](C)NC(=O)[C@H](CO)NC(=O)[C@H](CC(C)C)NC(=O)[C@H](CCC(N)=O)NC(=O)[C@H](CC)NC(=O)[C@H](CC(C)C)NC(=O)[C@@H](NC(=O)[C@H](CCCN)NC(=O)[C@H](CCCNC(=N)N)NC(=O)[C@H](Cc1ccc(O)cc1)NC(=O)[C@H](CO)NC(=O)[C@H](CCC(N)=O)NC(=O)[C@@H](NC(=O)[C@H](Cc1ccccc1)NC(=O)[C@@H](NC(=O)[C@H](C)NC(=O)[C@H](CC(=O)O)NC(=O)[C@@H](C)NC(=O)CCc1ccc(O)cc1)[C@@H](C)CC)[C@@H](C)O)C(C)C)[C@@H](C)CC)C(=O)N[C@@H](CC(=O)O)C(=O)N[C@@H](CCCNC(=N)N)C(=O)NC` is reported as 0.91 (GH release; rat, male, serum; subcutaneous, 3 µg/kg, 15 min; relative to: reference GHRH agonist JI-38).
`COc1ccc2c(c1)c(CC(=O)OCC(=O)c1ccccc1)c(C)n2C(=O)c1ccc(Cl)cc1`: “latency of nociceptive response” 13.6 ± 1.23 s (hot plate test; BALB/c mice; 50 mg/kg, 30 min).

A few entries again:
`NS(=O)(=O)NCC(F)(F)c1ccccc1F` has an ED50 of 19 ± 2 mg/kg (protection from seizures; Frings audiogenic seizure mouse; intraperitoneal).
Under “black tail length”, `CCCCC1NC(=O)c2ccccc21` (racemic) is recorded as 3.5 ± 1.1 cm (thrombosis; mouse, carrageenan-induced thrombosis; oral, 20 mg/kg daily for 2 days, 24 h after carrageenan).
`COC1OC(C)C(OS(=O)(=O)O)C(OC2OC(C)C(OS(=O)(=O)O)C(OC3OC(C)C(OS(=O)(=O)O)C(OC4OC(C)C(OS(=O)(=O)O)C(OC5OC(C)C(OS(=O)(=O)O)C(OC6OC(C)C(OS(=O)(=O)O)C(OC7OC(C)C(OS(=O)(=O)O)C(OC8OC(C)C(OS(=O)(=O)O)C(OS(=O)(=O)O)C8OS(=O)(=O)O)C7OS(=O)(=O)O)C6OS(=O)(=O)O)C5OS(=O)(=O)O)C4OS(=O)(=O)O)C3OS(=O)(=O)O)C2OS(=O)(=O)O)C1OS(=O)(=O)O` (stereo not drawn): “concentration doubling APTT” 13.6 µg/mL (clotting time; human plasma).
